Assay results collected from several papers.
Protocols differ between the studies behind these lines. Values joined by “and” are separate records of one study, mostly repeats; a detail may differ. ± marks the error that the study gave.
TDP1: Tyrosyl-DNA phosphodiesterase 1 (TDP1, Homo sapiens, UniProt Q9NUW8)
RAD51: DNA repair protein RAD51 homolog 1 (RAD51, Homo sapiens, UniProt Q06609)
MAOB: Amine oxidase [flavin-containing] B (MAOB, Homo sapiens, UniProt P27338)
Blk: Tyrosine-protein kinase Blk (Blk, Mus musculus, UniProt P16277)
DNA dC->dU-editing enzyme APOBEC-3B C-terminal domain: DNA dC->dU-editing enzyme APOBEC-3B, C-terminal domain (Homo sapiens, UniProt Q9UH17)
IL1RL2: Interleukin-1 receptor-like 2 (IL1RL2, Homo sapiens, UniProt Q9HB29)

SMILES | target | assay | test system | conditions | scale | measurement | value
O=C(O)c1ccc(Nc2c(-c3ccc(CON=Cc4ccc(CN5C(=O)c6ccccc6C5=O)o4)cc3)nc3cc(-c4ccccc4)ccn23)cc1 (mixture of isomers) | TDP1 | enzyme activity, inhibitor |  | 100 µM, unpurified compound |  | inhibition | 87.6%
CCCCN(CC)CCCNC(=S)Nc1ccc2nc(N3CCN(C)CC3)cc(C)c2c1 | RAD51 | D-loop formation, inhibitor |  | 10 x RAD52 pairing IC50, 4% DMSO, added: 1 mM calcium chloride | relative to: DMSO control | remaining activity | 108 ± 3.1%
C[C@](C(=O)NC1CCOCC1)(c1cncnc1)N(C(=O)[C@H](F)Cl)c1ccc(OC(F)(F)Cl)cc1 | Cathepsin G (CTSG, Homo sapiens, UniProt P08311) | enzyme activity, inhibitor |  | 10 µM |  | remaining activity | 102%
Cc1ccc(-c2nc(C(=O)NCCCN3CCOCC3)cc3c2[nH]c2ccccc23)cc1 | RAD51 | D-loop formation, inhibitor |  | 10 x RAD52 pairing IC50, 4% DMSO, added: 1 mM calcium chloride | relative to: DMSO control | remaining activity | 73.6 ± 2.2%
CC(C)c1ccc(/C=C/C(=O)c2ccc(F)cc2)cc1 | MAOB | enzyme activity, inhibitor |  | 1 µM |  | remaining activity | -4.1%
O=C=[N][Ru-4]123([n]4c5ccc(O)cc5c5c6c(c7cc(F)c[n+]1c7c54)C(=O)NC6=O)[S+]1CC[S+]2CC[S+]3CC1 (centres unmarked) | Blk | enzyme activity |  | 100 nM, mouse enzyme, added: 10 µM ATP | relative to: untreated | remaining activity | 113%
O=c1cnnc(Nc2ccc(O)cc2)[nH]1 | DNA dC->dU-editing enzyme APOBEC-3B C-terminal domain | deaminase activity, inhibitor |  | 500 µM |  | remaining activity | 23.7%
CCC1Sc2ccc(S(=O)(=O)CCC(=O)Nc3cccc4ccccc34)cc2NC1=O (centres unmarked) | P2X purinoceptor 7 (P2rx7, Mus musculus, UniProt Q9Z1M0, A312V) | ATP-evoked current, inhibitor, whole-cell patch clamp | HEK293 transfected | 0.3 µM |  | remaining activity | 75.4%
CN(C)S(=O)(=O)c1ccc(S(=O)(=O)N2CCC(n3c(=O)[nH]c4ccccc43)CC2)cc1 | DNA excision repair protein ERCC-6 (ERCC6, Homo sapiens, UniProt Q03468) | ATPase activity, BIOMOL Green |  | concentration not given |  | remaining activity | 98.2% and 95.4%
CC(C)c1ccc(/C=C/C(=O)c2ccc(Cl)cc2)cc1 | MAOB | enzyme activity, inhibitor |  | 1 µM |  | remaining activity | -1.8%
Cc1cc(N2CCN(C)CC2)nc2ccc(NC(=S)NCCCN3CCN(C)CC3)cc12 | RAD51 | D-loop formation, inhibitor |  | 10 x RAD52 pairing IC50, 4% DMSO, added: 1 mM calcium chloride | relative to: DMSO control | remaining activity | 112 ± 4.2%
Cn1c(N)c(C=NOCc2ccc(-c3nc4cc(-c5ccccc5)ccn4c3Nc3ccc(C(=O)O)cc3)cc2)c(=O)n(C)c1=O | TDP1 | enzyme activity, inhibitor |  | 100 µM, unpurified compound |  | inhibition | 84%
CC(C)[C@@H]1NC(=O)[C@H](Cc2ccccc2)NC(=O)CSC[C@@H](C(N)=O)NC(=O)[C@H](CCC(=O)O)NC(=O)[C@H](CO)NC(=O)[C@H](Cc2c[nH]c3ccccc23)NC(=O)[C@H](C(C)C)NC(=O)[C@H](C(C)C)NC(=O)[C@H](Cc2ccc(O)cc2)NC(=O)[C@H](CC(=O)O)NC(=O)[C@H](Cc2c[nH]c3ccccc23)NC(=O)[C@H](Cc2ccc(O)cc2)NC(=O)[C@H](Cc2c[nH]c3ccccc23)NC(=O)[C@H](CCC(=O)O)NC1=O | Interleukin-1 receptor type 1 (IL1R1, Homo sapiens, UniProt P14778) | IL-8 release, antagonist | A-431 | 20 µM, 18 h, added: IL-1β 5 ng/mL | relative to: untreated | remaining activity | 96.8%
COc1ccc(NC(=O)Nc2ccc3c(c2)C(=O)N(C(C)CO)CC(C)C(CN(C)Cc2ccc4c(c2)OCO4)O3)cc1 (centres unmarked) | Blk | kinase activity, KinaseProfiler |  | 0.03 µM, species mouse | relative to: control | remaining activity | 96%
NC(=O)COc1cccc(-c2cccc(C(=O)N3CCC4(CCCC4)C3)c2)c1 | DNA dC->dU-editing enzyme APOBEC-3B C-terminal domain | deaminase activity, inhibitor |  | 500 µM |  | remaining activity | 24.2%
COC(=O)[C@@]1(C)C=C(C(=O)Nc2cccc(C(=O)Nc3ccc(Nc4nccc(-c5cccnc5)n4)c(C)c3)c2)C(=O)CC1 | Mitogen-activated protein kinase 1 (MAPK1, Homo sapiens, UniProt P28482) | kinase activity, inhibitor |  | 133.3 µM, unit not given | relative to: no inhibitor | remaining activity | 0.443
CCC1(O)CCCN(C(=O)c2ccc(-c3ccc(F)c(C(N)=O)c3)cc2)C1 (centres unmarked) | DNA dC->dU-editing enzyme APOBEC-3B C-terminal domain | deaminase activity, inhibitor |  | 500 µM |  | remaining activity | 1.1%
N#Cc1cnc2sc(C(=O)O)cc2c1N1CCc2[nH]nc(C(=O)N[C@@H](CC(=O)NCCOCCN3CCOCC3)c3cccc(Br)c3)c2C1 | IL1RL2 | reporter gene (SEAP), inhibitor, HEK-Blue IL-36R reporter | HEK-Blue IL-36R cells | 0.14 µM, 6 h, added: IL36A 0.01 ng/mL |  | remaining activity | 94.7%
CN1CCC[C@@H]1C(=O)N[C@@H](Cc1ccc(-c2ccccc2)cc1)B(O)O | Proteasome component C5/PSMB5 (Homo sapiens, UniProt P20618+P28074) | enzyme activity, inhibitor |  | 1 µM, PA28αβ-activated, HEPES buffer, added: Ac-WLA-AMC substrate |  | remaining activity | 8 ± 1%
CC(C)[C@@H]1NC(=O)[C@H](Cc2ccccc2)NC(=O)CSC[C@@H](C(N)=O)NC(=O)[C@H](CCC(=O)O)NC(=O)[C@H](CO)NC(=O)[C@H](Cc2c[nH]c3cccc(Cl)c23)NC(=O)[C@H](C2CCCCC2)NC(=O)[C@H](C(C)C)NC(=O)[C@H](Cc2ccc(O)cc2)NC(=O)[C@H](CC(=O)O)NC(=O)[C@H](Cc2c[nH]c3ccccc23)NC(=O)[C@H](Cc2ccc(N)nc2)NC(=O)[C@H](Cc2c[nH]c3ccc(Cl)cc23)NC(=O)[C@H](CCC(=O)O)NC1=O | IL1RL2 | reporter gene (SEAP), inhibitor, HEK-Blue IL-36R reporter | HEK-Blue IL-36R cells | 0.41 µM, 6 h, added: IL-36β 0.1 ng/mL |  | remaining activity | 48.1%
NC(=O)c1ccc2nc(CN3CCCC3c3ccco3)cc(O)c2c1 (centres unmarked) | DNA dC->dU-editing enzyme APOBEC-3B C-terminal domain | deaminase activity, inhibitor |  | 500 µM |  | remaining activity | 7.4%
Cc1ccc(C)c(-c2ccc3nc(NC(=O)C4CCCCC4)nn3c2)c1 | Eukaryotic elongation factor 2 kinase (EEF2K, Homo sapiens, UniProt O00418) | enzyme activity, Dundee kinase panel |  | 10 µM |  | remaining activity | 102%
O=C(c1cccc(-c2cc(NCCO)ncn2)c1)N1CCCC1c1ccccc1 (centres unmarked) | DNA dC->dU-editing enzyme APOBEC-3B C-terminal domain | deaminase activity, inhibitor |  | 500 µM |  | remaining activity | 19.8%
COc1ccccc1Nc1nc(NCCCO)c2ccccc2n1 | RAD51 | D-loop formation, inhibitor |  | 10 x RAD52 pairing IC50, 4% DMSO, added: 1 mM calcium chloride | relative to: DMSO control | remaining activity | 89.7 ± 0.4%
CC(C)c1ccc(/C=C/C(=O)c2ccc(O)cc2)cc1 | MAOB | enzyme activity, inhibitor |  | about 2 × IC50, 30 min preincubation, after dialysis |  | remaining activity | 78.7%
CCN(CC)CCNC(=S)Nc1ccc2nc(N3CCN(CC)CC3)cc(C)c2c1 | RAD51 | D-loop formation, inhibitor |  | 10 x RAD52 pairing IC50, 4% DMSO, added: 1 mM calcium chloride | relative to: DMSO control | remaining activity | 95.5 ± 4.3%
CC(C)c1ccc(/C=C/C(=O)c2ccc(Br)cc2)cc1 | MAOB | enzyme activity, inhibitor |  | 1 µM |  | remaining activity | 1.82%
COc1ccccc1-c1ccncc1C(=O)Nc1nnc(OCc2ccc(Cl)cc2)s1 | DNA polymerase theta, helicase domain (POLQ, Homo sapiens, UniProt O75417) | ATPase activity, ADP-Glo |  | 0.008 µM, added: ATP 100 µM |  | remaining activity | 72%
COC(=O)[C@@]1(C(C)C)C=C(C(=O)Nc2cccc(C(=O)Nc3ccc(Nc4nccc(-c5cccnc5)n4)c(C)c3)c2)C(=O)CC1 | Mitogen-activated protein kinase 8 (MAPK8, Homo sapiens, UniProt P45983) | kinase activity, inhibitor |  | 0.06097 µM, unit not given, added: 10 mM glutathione | relative to: no inhibitor | remaining activity | 0.761

Repeated from above:
SMILES | target | assay | test system | conditions | scale | measurement | value
Cn1c(N)c(C=NOCc2ccc(-c3nc4cc(-c5ccccc5)ccn4c3Nc3ccc(C(=O)O)cc3)cc2)c(=O)n(C)c1=O | TDP1 | enzyme activity, inhibitor |  | 100 µM, unpurified compound |  | inhibition | 84%
CC(C)[C@@H]1NC(=O)[C@H](Cc2ccccc2)NC(=O)CSC[C@@H](C(N)=O)NC(=O)[C@H](CCC(=O)O)NC(=O)[C@H](CO)NC(=O)[C@H](Cc2c[nH]c3ccccc23)NC(=O)[C@H](C(C)C)NC(=O)[C@H](C(C)C)NC(=O)[C@H](Cc2ccc(O)cc2)NC(=O)[C@H](CC(=O)O)NC(=O)[C@H](Cc2c[nH]c3ccccc23)NC(=O)[C@H](Cc2ccc(O)cc2)NC(=O)[C@H](Cc2c[nH]c3ccccc23)NC(=O)[C@H](CCC(=O)O)NC1=O | Interleukin-1 receptor type 1 (IL1R1, Homo sapiens, UniProt P14778) | IL-8 release, antagonist | A-431 | 20 µM, 18 h, added: IL-1β 5 ng/mL | relative to: untreated | remaining activity | 96.8%
COc1ccc(NC(=O)Nc2ccc3c(c2)C(=O)N(C(C)CO)CC(C)C(CN(C)Cc2ccc4c(c2)OCO4)O3)cc1 (centres unmarked) | Blk | kinase activity, KinaseProfiler |  | 0.03 µM, species mouse | relative to: control | remaining activity | 96%
NC(=O)COc1cccc(-c2cccc(C(=O)N3CCC4(CCCC4)C3)c2)c1 | DNA dC->dU-editing enzyme APOBEC-3B C-terminal domain | deaminase activity, inhibitor |  | 500 µM |  | remaining activity | 24.2%
